Measured values pooled from the literature.
Each numbered part is a random draw from the data of one study; scales do not carry over between parts.
Sequence of UniProt Q86UX6 (whole entry, looked up): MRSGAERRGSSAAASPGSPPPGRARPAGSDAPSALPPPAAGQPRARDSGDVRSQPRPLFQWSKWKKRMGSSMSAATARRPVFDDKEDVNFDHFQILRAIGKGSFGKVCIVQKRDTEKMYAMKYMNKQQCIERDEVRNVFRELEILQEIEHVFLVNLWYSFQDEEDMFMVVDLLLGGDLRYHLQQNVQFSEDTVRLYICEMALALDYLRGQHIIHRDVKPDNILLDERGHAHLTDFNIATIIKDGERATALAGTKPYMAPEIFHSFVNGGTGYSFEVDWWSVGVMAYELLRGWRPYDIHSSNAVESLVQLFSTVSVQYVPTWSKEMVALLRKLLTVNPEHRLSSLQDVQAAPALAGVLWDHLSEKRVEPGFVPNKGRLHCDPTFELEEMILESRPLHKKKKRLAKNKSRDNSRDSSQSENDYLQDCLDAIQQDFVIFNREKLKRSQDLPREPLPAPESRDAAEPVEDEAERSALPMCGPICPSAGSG
Sequence of UniProt P42336 (whole entry, unmodified, looked up): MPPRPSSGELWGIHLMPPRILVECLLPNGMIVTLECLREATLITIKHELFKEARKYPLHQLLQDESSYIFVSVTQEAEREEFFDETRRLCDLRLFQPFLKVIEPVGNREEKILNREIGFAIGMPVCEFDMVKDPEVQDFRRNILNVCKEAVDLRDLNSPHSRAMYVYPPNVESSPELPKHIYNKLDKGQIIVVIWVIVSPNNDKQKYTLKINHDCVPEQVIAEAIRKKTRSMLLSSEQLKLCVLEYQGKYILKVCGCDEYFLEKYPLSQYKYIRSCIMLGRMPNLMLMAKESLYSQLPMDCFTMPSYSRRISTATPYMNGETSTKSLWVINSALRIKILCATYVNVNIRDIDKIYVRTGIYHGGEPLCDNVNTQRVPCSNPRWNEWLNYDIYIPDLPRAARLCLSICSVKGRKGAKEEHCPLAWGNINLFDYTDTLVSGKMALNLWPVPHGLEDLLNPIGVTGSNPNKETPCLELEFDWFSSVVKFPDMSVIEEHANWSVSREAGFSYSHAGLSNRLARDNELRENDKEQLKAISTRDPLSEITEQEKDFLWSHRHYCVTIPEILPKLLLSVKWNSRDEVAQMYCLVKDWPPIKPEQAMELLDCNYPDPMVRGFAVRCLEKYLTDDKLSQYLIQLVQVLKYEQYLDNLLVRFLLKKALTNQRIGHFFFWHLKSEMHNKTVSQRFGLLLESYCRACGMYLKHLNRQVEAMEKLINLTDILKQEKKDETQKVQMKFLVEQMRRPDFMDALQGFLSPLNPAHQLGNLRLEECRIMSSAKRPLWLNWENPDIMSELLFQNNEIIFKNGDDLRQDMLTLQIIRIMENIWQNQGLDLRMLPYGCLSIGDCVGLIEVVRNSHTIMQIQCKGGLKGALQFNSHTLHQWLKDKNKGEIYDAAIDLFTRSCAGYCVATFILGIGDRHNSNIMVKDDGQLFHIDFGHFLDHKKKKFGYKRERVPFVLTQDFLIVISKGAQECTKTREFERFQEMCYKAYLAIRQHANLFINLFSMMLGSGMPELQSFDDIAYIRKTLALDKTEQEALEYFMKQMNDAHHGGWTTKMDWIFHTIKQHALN
Sequence of UniProt P41240 (whole entry, looked up): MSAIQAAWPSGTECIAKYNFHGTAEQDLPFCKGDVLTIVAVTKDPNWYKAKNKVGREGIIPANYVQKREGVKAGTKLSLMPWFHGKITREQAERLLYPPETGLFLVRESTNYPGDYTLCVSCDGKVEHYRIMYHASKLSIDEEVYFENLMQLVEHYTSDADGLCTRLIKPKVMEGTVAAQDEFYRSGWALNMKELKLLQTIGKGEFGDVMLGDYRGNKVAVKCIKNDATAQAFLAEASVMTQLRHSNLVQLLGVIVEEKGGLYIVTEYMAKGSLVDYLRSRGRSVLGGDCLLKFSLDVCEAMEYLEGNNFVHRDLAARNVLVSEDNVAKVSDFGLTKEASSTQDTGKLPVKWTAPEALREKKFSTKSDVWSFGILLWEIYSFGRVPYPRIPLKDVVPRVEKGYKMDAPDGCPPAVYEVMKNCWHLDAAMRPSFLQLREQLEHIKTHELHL
Sequence of UniProt P93022 (whole entry, looked up): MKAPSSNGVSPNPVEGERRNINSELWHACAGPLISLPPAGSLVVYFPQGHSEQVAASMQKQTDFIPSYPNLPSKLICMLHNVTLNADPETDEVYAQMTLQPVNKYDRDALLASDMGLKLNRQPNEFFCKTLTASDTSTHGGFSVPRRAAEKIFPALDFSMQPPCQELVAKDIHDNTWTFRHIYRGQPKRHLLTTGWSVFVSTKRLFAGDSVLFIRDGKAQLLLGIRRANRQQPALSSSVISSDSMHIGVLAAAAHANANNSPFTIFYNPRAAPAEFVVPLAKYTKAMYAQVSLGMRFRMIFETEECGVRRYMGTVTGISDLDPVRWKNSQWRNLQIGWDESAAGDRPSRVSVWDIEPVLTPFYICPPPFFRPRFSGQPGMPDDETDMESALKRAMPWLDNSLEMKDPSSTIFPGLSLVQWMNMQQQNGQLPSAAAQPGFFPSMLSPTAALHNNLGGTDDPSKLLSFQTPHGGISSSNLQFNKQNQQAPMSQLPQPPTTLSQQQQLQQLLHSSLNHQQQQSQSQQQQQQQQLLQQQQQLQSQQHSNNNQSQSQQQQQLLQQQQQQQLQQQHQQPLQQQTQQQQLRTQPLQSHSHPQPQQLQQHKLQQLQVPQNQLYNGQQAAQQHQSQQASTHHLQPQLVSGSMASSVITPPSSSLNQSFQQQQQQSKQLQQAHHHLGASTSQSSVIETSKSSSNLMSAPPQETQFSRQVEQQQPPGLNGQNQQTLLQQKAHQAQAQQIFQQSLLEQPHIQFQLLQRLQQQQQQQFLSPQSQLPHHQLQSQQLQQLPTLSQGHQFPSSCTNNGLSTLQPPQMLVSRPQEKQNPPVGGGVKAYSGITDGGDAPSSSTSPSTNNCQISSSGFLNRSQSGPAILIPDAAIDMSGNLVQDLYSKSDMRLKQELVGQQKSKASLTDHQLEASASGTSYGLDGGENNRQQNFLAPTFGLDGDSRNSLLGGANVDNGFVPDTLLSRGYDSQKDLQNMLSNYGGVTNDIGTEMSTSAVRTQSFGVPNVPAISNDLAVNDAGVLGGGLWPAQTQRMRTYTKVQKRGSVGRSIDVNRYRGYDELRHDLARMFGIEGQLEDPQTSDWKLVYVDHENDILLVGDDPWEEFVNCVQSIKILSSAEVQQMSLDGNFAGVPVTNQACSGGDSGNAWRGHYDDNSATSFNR
Sequence of UniProt Q9BYT3 (whole entry, looked up): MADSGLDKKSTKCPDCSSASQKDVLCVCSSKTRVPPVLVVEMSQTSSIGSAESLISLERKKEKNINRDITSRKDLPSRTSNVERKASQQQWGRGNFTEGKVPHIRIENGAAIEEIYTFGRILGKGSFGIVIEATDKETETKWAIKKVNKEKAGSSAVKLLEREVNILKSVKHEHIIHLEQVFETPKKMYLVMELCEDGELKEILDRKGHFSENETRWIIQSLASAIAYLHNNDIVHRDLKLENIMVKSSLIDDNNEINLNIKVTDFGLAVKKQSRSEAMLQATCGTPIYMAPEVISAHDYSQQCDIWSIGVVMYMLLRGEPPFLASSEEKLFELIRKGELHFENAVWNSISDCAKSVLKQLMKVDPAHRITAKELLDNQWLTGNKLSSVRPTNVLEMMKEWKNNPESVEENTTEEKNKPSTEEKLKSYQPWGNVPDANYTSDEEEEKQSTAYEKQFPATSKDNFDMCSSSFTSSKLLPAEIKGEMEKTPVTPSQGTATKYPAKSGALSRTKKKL
Sequence of UniProt O15530 (whole entry, looked up): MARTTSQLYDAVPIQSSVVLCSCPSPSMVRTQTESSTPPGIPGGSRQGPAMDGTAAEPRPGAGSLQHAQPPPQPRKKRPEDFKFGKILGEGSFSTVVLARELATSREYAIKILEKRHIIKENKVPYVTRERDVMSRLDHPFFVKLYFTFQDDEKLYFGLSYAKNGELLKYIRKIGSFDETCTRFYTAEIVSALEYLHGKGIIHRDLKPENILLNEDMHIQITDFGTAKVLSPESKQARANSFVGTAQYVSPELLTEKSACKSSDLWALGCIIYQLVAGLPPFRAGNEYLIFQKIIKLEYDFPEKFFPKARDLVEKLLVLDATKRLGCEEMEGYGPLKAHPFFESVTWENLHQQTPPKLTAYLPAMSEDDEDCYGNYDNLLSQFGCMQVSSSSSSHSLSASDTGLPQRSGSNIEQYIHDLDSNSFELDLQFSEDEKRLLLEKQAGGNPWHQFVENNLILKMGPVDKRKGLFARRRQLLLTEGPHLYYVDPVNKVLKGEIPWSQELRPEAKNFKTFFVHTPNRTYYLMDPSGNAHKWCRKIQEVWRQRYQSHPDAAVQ
Sequence of UniProt Q9UEE5 (whole entry, looked up): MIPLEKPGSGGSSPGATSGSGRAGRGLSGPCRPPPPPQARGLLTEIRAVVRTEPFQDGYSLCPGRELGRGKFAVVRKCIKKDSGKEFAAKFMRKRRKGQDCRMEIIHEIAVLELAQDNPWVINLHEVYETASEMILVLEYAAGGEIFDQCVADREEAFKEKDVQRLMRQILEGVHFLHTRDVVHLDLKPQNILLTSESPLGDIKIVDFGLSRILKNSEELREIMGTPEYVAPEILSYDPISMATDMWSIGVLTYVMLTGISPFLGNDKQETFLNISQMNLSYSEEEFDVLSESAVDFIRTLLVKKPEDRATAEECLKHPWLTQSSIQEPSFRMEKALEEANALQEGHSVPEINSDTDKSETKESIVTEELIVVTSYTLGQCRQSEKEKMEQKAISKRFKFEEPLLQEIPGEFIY
Sequence of UniProt O24407 (whole entry, looked up): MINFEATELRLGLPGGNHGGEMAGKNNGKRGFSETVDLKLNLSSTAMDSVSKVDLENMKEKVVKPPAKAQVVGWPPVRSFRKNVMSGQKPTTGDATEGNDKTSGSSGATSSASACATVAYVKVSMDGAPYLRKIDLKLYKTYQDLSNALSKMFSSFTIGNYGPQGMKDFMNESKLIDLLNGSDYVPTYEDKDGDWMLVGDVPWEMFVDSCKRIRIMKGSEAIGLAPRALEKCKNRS

Set 1
Target: TAR DNA-binding protein 43, full length, His tag (TARDBP, Homo sapiens, UniProt Q13148, residues 1-414)
Method: RNA Bind-n-Seq
Molecule type: RNA
Matrix: in vitro
Tested at: 20 nM
Notes: 6-mer, flanks averaged, single round
Together with: 150 mM LiCl
Reference: input library
Direction: higher = stronger binding
Sequence	6-mer enrichment (R)
GAGUGC	1.19
ACUUCA	0.826
CGCGCC	0.991
GGUCAG	0.964
ACUGGG	1.01
UGAAGA	0.938
AGUGGG	1.35
GACCAG	0.898

Set 2
Cell line: A-375
Tested at: 100 µM
Time: 18 h
Compound	viability [%]
N=C(N)/N=C(\N)N1CCOCC1	101
CCN1CCN(c2cc3c(cc2F)c(=O)c(C(=O)O)cn3C2CC2)CC1	98.9
CC1(C)[C@H]2CC[C@]1(C)C(=O)C2	104

Set 3
Molecule: B1 (IAA13)
Method: two-hybrid
Reference: out of 4 tests
Direction: higher = firmer interaction
B1: IAA13 (Arabidopsis thaliana, UniProt Q38831); chain MITELEMGKGESELELGLGLSLGGGTAAKIGKSGGGGAWGERGRLLTAKDFPSVGSKRAADSASHAGSSPPRSSSQVVGWPPIGSHRMNSLVNNQATKSAREEEEAGKKKVKDDEPKDVTKKVNGKVQVGFIKVNMDGVAIGRKVDLNAHSSYENLAQTLEDMFFRTNPGTVGLTSQFTKPLRLLDGSSEFVLTYEDKEGDWMLVGDVPWRMFINSVKRLRVMKTSEANGLAARNQEPNERQRKQPV
partner	conditions	positive tests
ARF12 500-593 (Arabidopsis thaliana, UniProt Q9XID4)	–	0
ARF17 (Arabidopsis thaliana, UniProt Q84WU6)	weak activation fusion	1
ARF7 1030-1164 (Arabidopsis thaliana, UniProt P93022)	–	3
IAA30 (Arabidopsis thaliana, UniProt Q9M1R4)	weak activation fusion	3
IAA16 (Arabidopsis thaliana, UniProt O24407)	–	2

Set 4
Compound: CCS(=O)(=O)c1cc2cc(C[C@](O)(CC(C)(C)c3ccc(F)cc3C(N)=O)C(F)(F)F)[nH]c2cn1
Read-out: cell-free assay
Method: competition with immobilised ligand
Tested at: 1 µM
target	remaining binding [%]
PDPK1 (Homo sapiens, UniProt O15530)	100
MAST1 (Homo sapiens, UniProt Q9Y2H9)	100
Mast/stem cell growth factor receptor Kit, autoinhibited (KIT, Homo sapiens, UniProt P10721)	89
Tyrosine-protein kinase ABL1, non-phosphorylated (ABL1, Homo sapiens, UniProt P00519, Q252H)	100
TNIK (Homo sapiens, UniProt Q9UKE5)	100
PIK3CA (Homo sapiens, UniProt P42336, E545A)	100
STK17A (Homo sapiens, UniProt Q9UEE5)	80
CSK (Homo sapiens, UniProt P41240)	100
EGFR (Homo sapiens, UniProt P00533)	81
PIP4K2B (Homo sapiens, UniProt P78356)	96
STK33 (Homo sapiens, UniProt Q9BYT3)	97
NEK11 (Homo sapiens, UniProt Q8NG66)	93
ERBB2 (Homo sapiens, UniProt P04626)	100
STK32C (Homo sapiens, UniProt Q86UX6)	100

Mixed results
Compound	assay	system	conditions	quantity	result
CC(C)C[C@@H]1NC(=O)[C@H](C)NC(=O)[C@@H](CC(C)C)NC(=O)[C@H](C)NC(=O)[C@H](C(C)C)NC(=O)[C@H](CC(C)C)NC(=O)[C@@H](CC(C)C)NC1=O	PRP chromatography estimate	1,9-decadiene/PBS	pH 7.4	logD	-0.73
CCc1cc(CN2OCC(C)(C)C2=O)c(Cl)s1	–	mouse, microsomes or S9	2 µM, 0.5 h	remaining compound	1%
